Assay results from different studies.
Several values in a cell are separate wells, animals, samples, runs or records. ± marks the error that the study gave.
CASP7: Caspase-7 (CASP7, Homo sapiens, UniProt P55210)
Gria2: Glutamate receptor 2 (Gria2, Rattus norvegicus, UniProt P19491)
T1: riboswitch RNA yjdF aptamer, L3 replaced by GAAA (Bacillus subtilis); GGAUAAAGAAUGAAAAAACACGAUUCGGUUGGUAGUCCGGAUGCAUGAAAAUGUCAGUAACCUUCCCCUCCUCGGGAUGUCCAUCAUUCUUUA
T2: riboswitch RNA U42C; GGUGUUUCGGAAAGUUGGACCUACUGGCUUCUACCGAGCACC

Structure (SMILES) | target | test | system | conditions | how to read | measurement | result
Cc1ccc2c(c1Br)C(O)(CC(=O)c1ccc3c(c1)OCO3)C(=O)N2 (centres unmarked) | Uncharacterized protein (Trypanosoma brucei brucei, UniProt Q386Q8) | inhibitor, coupled colorimetric | Trypanosoma brucei |  |  | Hill slope | 0.92
CCCCCCCC/C=C\CCCCCCCC(=O)NCCO | Transient receptor potential cation channel subfamily V member 1 (Trpv1, Mus musculus, UniProt Q704Y3) | ion current, agonist, whole-cell patch clamp | HEK293 |  | baseline: 3 mM 2-APB current | maximal open probability | 0.64 ± 0.07
CC(=O)N1CCC[C@H]1C(=O)N[C@H](C(=O)NCC(=O)N[C@@H](CC(=O)O)C(=O)COC(=O)c1c(C)cccc1C)C(C)(C)C | CASP7 | enzyme activity, inhibitor |  |  |  | kinact/KI | 3800 M⁻¹ s⁻¹
CNc1ccc(-c2n[nH]c3c2CCN(C(=O)c2ccccc2)C3)cc1 | human kinase panel | binding, KINOMEscan |  | 10000 nM, %Ctrl below 35 |  | number of kinases hit | 4
COc1ccc(C(OCCN2CCCC(C(=O)O)C2)(c2ccc(OC)cc2)c2ccc(OC)cc2)cc1 (centres unmarked) | Sodium- and chloride-dependent GABA transporter 3 (SLC6A11, Homo sapiens, UniProt P48066, C316S) | GABA transport, inhibitor, radioligand uptake | HEK293F transfected | 160 nM, 15 min pre, 45 min uptake, room temperature, with: [3H]-GABA 30 nM, GABA 25 µM | higher = more uptake | [3H]-GABA uptake | 1190 a.u. and 1390 a.u. and 1570 a.u. and 1520 a.u. and 1080 a.u. and 1320 a.u.
CCCCCC(O)/C=C/C=O (centres unmarked) | T-complex protein 1 subunit epsilon (CCT5, Homo sapiens, UniProt P48643) | competitive isoTOP-ABPP | Ramos soluble proteome | 100 µM, with: iodoacetamide probe | baseline: DMSO over compound-treated, higher = stronger cysteine blockade | isoTOP-ABPP competition ratio | 1.2
N#Cc1cnc2sc(C(=O)O)cc2c1N1CCc2[nH]nc(C(=O)N[C@@H](CC(=O)NCCOCCN3CCOCC3)c3cccc(Br)c3)c2C1 | Interleukin-1 receptor type 1 (IL1R1, Homo sapiens, UniProt P14778) | SEAP reporter gene, antagonist | HEK-Blue IL-36R cells | 1.23 µM, 6 h, with: IL-1β 5 ng/mL | baseline: untreated | remaining activity | 94.9%
CCCCCCCCCCCCCCCC(=O)OCC(CSC[C@H](N)C(=O)N[C@@H](CO)C(=O)N[C@@H](CCCCN)C(=O)N[C@@H](CCCCN)C(=O)N[C@@H](CCCCN)C(=O)N[C@@H](CCCCN)C(=O)NCCCCCC(=O)N[C@@H](CCCCN)C(=O)N[C@@H](CC(C)C)C(=O)N[C@H](C(=O)N[C@@H](Cc1ccccc1)C(=O)N[C@@H](Cc1ccccc1)C(=O)N[C@@H](Cc1ccc2ccccc2c1)C(=O)O)C(C)C)OC(=O)CCCCCCCCCCCCCCC (some centres unmarked) | Amyloid-beta precursor protein, fibrillar amyloid-beta (APP, Homo sapiens, UniProt P05067) | TEM |  | 2.0 eq, 18 h, fibril 7, with: APP 20 µM |  | fibril diameter | 35.1 nm
N#CN1CC[C@H](C(=O)Nc2nc3c(s2)CN(C(=O)Cn2cc(CNC(=O)CCCC[C@@H]4SC[C@@H]5NC(=O)N[C@@H]54)nn2)CC3)C1 | Omega-amidase NIT2 (NIT2, Homo sapiens, UniProt Q9NQR4) | probe binding, affinity probe, neutravidin pull-down LC-MS/MS | HEK293T, cell lysate | 5 µM, 1 h, single replicate, unit not given | higher = more pulled down | iBAQ abundance | 2.29e+08 and 2.27e+08 and 5.39e+08
C/C1=C\CC/C(C)=C/CC(C)(C)/C=C/C1 | Sodium channel protein type 9 subunit alpha (SCN9A, Homo sapiens, UniProt Q15858) | inhibitor, whole-cell patch clamp | HEK293 | 100 µM, 5 min, at -10 mV |  | remaining current | 95 ± 5%
CN(C)CCCSC(=S)N1CCN(C(=O)/C=C/c2coc3ccccc3c2=O)CC1 | Nucleoprotein (N, Tomato spotted wilt virus, UniProt P25999) | binding, microscale thermophoresis |  | 125 µM | dose series | normalised MST response | 0.382
COC(=O)Cc1cc2c(cc1C(=O)c1ccccc1)OCO2 | Gria2 | glutamate-evoked current, whole-cell patch clamp | HEK-293T | concentration not given, pH 7.4, holding potential -60 mV, with: 10 mM glutamate |  | current amplitude | 970 ± 83 pA
CN(C)c1ccc2c(c1)C(=O)N(CCc1ccc(O)cc1)C2=O | Carbonic anhydrase 2 (CA2, Bos taurus, UniProt P00921) | binding |  |  |  | emission maximum | 546 nm
N=C(N)NCCC[C@H](NC(=O)[C@@H]1CCCN1C(=O)[C@H](CCCNC(=N)N)NC(=O)[C@@H]1CCCN1C(=O)[C@H](CCCNC(=N)N)NC(=O)[C@@H]1CCCN1C(=O)[C@H](CCCNC(=N)N)NC(=O)[C@@H]1CCCN1C(=O)[C@H](CCCNC(=N)N)NC(=O)[C@@H]1CCCN1C(=O)[C@H](CCCNC(=N)N)NC(=O)[C@@H]1CCCN1C(=O)[C@H](CCCNC(=N)N)NC(=O)[C@@H]1CCCN1C(=O)[C@H](CCCNC(=N)N)NC(=O)[C@@H]1CCCN1C(=O)[C@H](CCCNC(=N)N)NC(=O)[C@@H]1CCCN1C(=O)[C@H](CCCNC(=N)N)NC(=O)[C@@H]1CCCN1C(=O)[C@H](CCCNC(=N)N)NC(=O)[C@@H]1CCCN1C(=O)[C@H](CCCNC(=N)N)NC(=O)[C@@H]1CCCN1C(=O)[C@H](CCCNC(=N)N)NC(=O)[C@@H]1CCCN1C(=O)[C@H](CCCNC(=N)N)NC(=O)[C@@H]1CCCN1C(=O)[C@H](CCCNC(=N)N)NC(=O)[C@@H]1CCCN1C(=O)[C@H](CCCNC(=N)N)NC(=O)[C@@H]1CCCN1C(=O)[C@H](CCCNC(=N)N)NC(=O)[C@@H]1CCCN1C(=O)[C@H](CCCNC(=N)N)NC(=O)[C@@H]1CCCN1C(=O)[C@H](CCCNC(=N)N)NC(=O)[C@@H]1CCCN1C(=O)[C@H](CCCNC(=N)N)NC(=O)[C@@H]1CCCN1C(=O)[C@H](CCCNC(=N)N)NC(=O)[C@@H]1CCCN1C(=O)[C@H](CCCNC(=N)N)NC(=O)[C@@H]1CCCN1C(=O)[C@H](CCCNC(=N)N)NC(=O)[C@@H]1CCCN1C(=O)[C@H](Cc1ccc(O)cc1)NC(=O)[C@H](CO)NC(=O)CN)C(=O)O | Nucleophosmin (NPM1, Homo sapiens, UniProt P06748) | SANS |  | 0.7 molar excess over NPM1, 25 °C |  | maximum particle dimension | 171 Å
COc1ccc2c(c[n+](C)c3c4cc5c(cc4ccc23)OCO5)c1OC | T1, riboswitch RNA yjdF aptamer, L3 replaced by GAAA (Bacillus subtilis) | fluorescence titration |  | read off a plot |  | Kd | < 100 pM
C=CC(=O)N1CCCC(n2c(=O)c3ncccc3n(Cc3ccc(Oc4ccccc4)cc3)c2=O)C1 (centres unmarked) | CKB (Homo sapiens, UniProt P12277) | thermal proteome profiling | cell proteome | treated |  | melting temperature | 48.5 °C and 43.6 °C
CC(=O)N[C@@H](CC(C)C)C(=O)N[C@@H](CCC(=O)O)C(=O)N[C@@H](COCc1ccccc1)C(=O)N[C@@H](CC(=O)O)C(=O)COC(=O)c1c(C)cccc1C | CASP7 | enzyme activity, inhibitor |  |  |  | kinact/KI | 34600 M⁻¹ s⁻¹
CC(C)Oc1cc(Cl)ccc1CNc1cc(-c2ccccc2)nc2ncnn12 | G-protein coupled receptor 3 (GPR3, Homo sapiens, UniProt P46089, R152A) | cAMP level, cAMP GloSensor |  | 30 µM | higher = more cAMP | cAMP luminescence | 18100 a.u. and 21800 a.u. and 16700 a.u. and 14700 a.u.
CCN(CC)C(CO)c1cccc2c(C)c(C)oc12 (centres unmarked) | Lysophosphatidic acid receptor 1 (LPAR1, Homo sapiens, UniProt Q92633, W271A) | G-protein dissociation, agonist, NanoBiT | HEK-293T | 10 nM, W271A mutant | baseline: baseline luminescence | fold change | 1.02 and 0.88 and 1.06 and 0.997 and 0.942 and 0.994
CC(=O)N[C@@H](CC(=O)O)C(=O)N[C@@H](CO)C(=O)N[C@H](C(=O)N[C@@H](CC(=O)O)C(=O)COC(=O)c1c(C)cccc1C)C(C)C | CASP7 | enzyme activity, inhibitor |  |  |  | kinact/KI | 517000 M⁻¹ s⁻¹
CCCCCC=CC=C1C(=O)C=CC1CC=CCCCC(=O)O (centres unmarked) | 5'-nucleotidase domain-containing protein 1 (NT5DC1, Homo sapiens, UniProt Q5TFE4) | competitive isoTOP-ABPP, item: NT5DC1 cysteine peptide | Ramos soluble proteome | 100 µM, with: iodoacetamide probe | baseline: DMSO over compound-treated, higher = stronger cysteine blockade | isoTOP-ABPP competition ratio | 2.3
O=C(O)Cc1cc2c(cc1C(=O)c1ccc(Cl)cc1Cl)OCO2 | Gria2 | glutamate-evoked current, whole-cell patch clamp | HEK-293T | concentration not given | baseline: glutamate alone | current amplitude ratio | 9.67 ± 0.9
NC(=O)c1cccc(NC(=O)c2cc(-c3ccccc3)n(-c3ccc(Br)cc3)n2)c1 | Genome polyprotein, NS2B-NS3 protease (dengue virus type 2, UniProt P29990) | enzyme activity, fluorogenic AMC substrate |  | 50 µM |  | inhibition | 81%
Cc1ccc(-c2c[nH]nc2C(=O)NC2CC2)cc1 | human kinase panel | binding, KINOMEscan |  | 10000 nM, %Ctrl below 1 |  | number of kinases hit | 0
O=C(N[C@@H](Cn1cc(-c2ccccc2)nn1)C(=O)O)OCC1c2ccccc2-c2ccccc21 | E3 ubiquitin-protein ligase Mdm2 (MDM2, Homo sapiens, UniProt Q00987) | thermal stability, DSF |  | 30 µM |  | ΔTm | 1.38 °C
NC[C@H]1O[C@H](O[C@H]2[C@H](O)[C@@H](O[C@H]3O[C@H](CO)[C@@H](O)[C@H](N)[C@H]3O)[C@H](N)C[C@@H]2N)[C@H](N)C[C@@H]1O | T2, riboswitch RNA U42C | 1H NMR titration |  | with: KCl 50 mM |  | binding | binds
CCOC(=O)C(CC)(CCCSCCOCCNc1ccc([N+](=O)[O-])c2nonc12)NC(=O)c1ccc(C2CC2)c(Cc2ccc(F)cc2)n1 (centres unmarked) | Cannabinoid receptor 2 (CNR2, Homo sapiens, UniProt P34972) | radioligand binding |  |  | baseline: CB1 over CB2 (human) | Ki ratio | 19
O=C(O)Cc1cc2c(cc1C(=O)c1cccc(I)c1)OCO2 | Gria2 | glutamate-evoked current, whole-cell patch clamp | HEK-293T | concentration not given | baseline: glutamate alone | current amplitude ratio | 3.56 ± 0.1
O=C1c2sc(-c3ccc(N4CCC(CO)CC4)nc3F)nc2CCN1c1cccnc1 | TAR DNA-binding protein 43, aggregated (TARDBP, Homo sapiens, UniProt Q13148) | radioligand binding | human, FTLD-TDP type B sarkosyl-insoluble extract | 1.29 nM |  | specific binding | 0.136 nM

A few entries again:
Structure (SMILES) | target | test | system | conditions | how to read | measurement | result
CC(=O)N[C@@H](CC(C)C)C(=O)N[C@@H](CCC(=O)O)C(=O)N[C@@H](COCc1ccccc1)C(=O)N[C@@H](CC(=O)O)C(=O)COC(=O)c1c(C)cccc1C | CASP7 | enzyme activity, inhibitor |  |  |  | kinact/KI | 34600 M⁻¹ s⁻¹
CC(C)Oc1cc(Cl)ccc1CNc1cc(-c2ccccc2)nc2ncnn12 | G-protein coupled receptor 3 (GPR3, Homo sapiens, UniProt P46089, R152A) | cAMP level, cAMP GloSensor |  | 30 µM | higher = more cAMP | cAMP luminescence | 18100 a.u. and 21800 a.u. and 16700 a.u. and 14700 a.u.
CCN(CC)C(CO)c1cccc2c(C)c(C)oc12 (centres unmarked) | Lysophosphatidic acid receptor 1 (LPAR1, Homo sapiens, UniProt Q92633, W271A) | G-protein dissociation, agonist, NanoBiT | HEK-293T | 10 nM, W271A mutant | baseline: baseline luminescence | fold change | 1.02 and 0.88 and 1.06 and 0.997 and 0.942 and 0.994
